Results pooled from the literature.
Each numbered part is a random draw from the data of one study; scales do not carry over between parts. ± marks the error that the study gave.

Study 1
Substance: SNC80
Action: agonist
| target | test | EC50 [nM] |
| --- | --- | --- |
| Delta-type opioid receptor, with β-arrestin2 (OPRD1, Homo sapiens, UniProt P41143) | β-arrestin2 recruitment | 23.3 |
| Delta-type opioid receptor, with Gi1 (OPRD1, Homo sapiens, UniProt P41143) | Gi1 activation | 2.95 |
| Delta-type opioid receptor, with GoB (OPRD1, Homo sapiens, UniProt P41143) | GoB activation | 1.07 |

Further values, each from its own experiment
| Substance | target or system | test | test system | setting | measurement | value |
| --- | --- | --- | --- | --- | --- | --- |
| phoxim-oxon | Ache (Rattus norvegicus, UniProt P37136) | enzyme activity, inhibitor, Ellman | rat, postnatal day 1, heart homogenate | 15 min, 37 °C | IC50 | 15 nM |
| human angiotensin II | AGTR1 (Homo sapiens, UniProt P30556) | radioligand binding | – | concentration not given | inhibition | 98.9% |
| norbinaltorphimine | OPRM1 (Homo sapiens, UniProt P35372) | G protein activation, antagonist | CHO cells overexpressing receptor | with: DAMGO | Ke | 26.7 ± 7 nM |
| insulin | – | – | female C57BL/6J mice | endogenous, population model, with: glucose 0.35 g/kg iv | clearance | 6.4 mL/min |
| benzalkonium bromide | Cholinesterase (BCHE, Homo sapiens, UniProt P06276) | enzyme activity, inhibitor | – | concentration not given, with Triton | inhibition | -49.7 ± 5.41% |

Some of these lines once more (further values, each from its own experiment):
| Substance | target or system | test | test system | setting | measurement | value |
| --- | --- | --- | --- | --- | --- | --- |
| human angiotensin II | AGTR1 (Homo sapiens, UniProt P30556) | radioligand binding | – | concentration not given | inhibition | 98.9% |
